Assay results pooled from the literature.
Parts stem from different laboratories: compare values within a part only. pKd: −log10 of the molar value.
Sequence of UniProt Q9H2X6 (whole entry, looked up): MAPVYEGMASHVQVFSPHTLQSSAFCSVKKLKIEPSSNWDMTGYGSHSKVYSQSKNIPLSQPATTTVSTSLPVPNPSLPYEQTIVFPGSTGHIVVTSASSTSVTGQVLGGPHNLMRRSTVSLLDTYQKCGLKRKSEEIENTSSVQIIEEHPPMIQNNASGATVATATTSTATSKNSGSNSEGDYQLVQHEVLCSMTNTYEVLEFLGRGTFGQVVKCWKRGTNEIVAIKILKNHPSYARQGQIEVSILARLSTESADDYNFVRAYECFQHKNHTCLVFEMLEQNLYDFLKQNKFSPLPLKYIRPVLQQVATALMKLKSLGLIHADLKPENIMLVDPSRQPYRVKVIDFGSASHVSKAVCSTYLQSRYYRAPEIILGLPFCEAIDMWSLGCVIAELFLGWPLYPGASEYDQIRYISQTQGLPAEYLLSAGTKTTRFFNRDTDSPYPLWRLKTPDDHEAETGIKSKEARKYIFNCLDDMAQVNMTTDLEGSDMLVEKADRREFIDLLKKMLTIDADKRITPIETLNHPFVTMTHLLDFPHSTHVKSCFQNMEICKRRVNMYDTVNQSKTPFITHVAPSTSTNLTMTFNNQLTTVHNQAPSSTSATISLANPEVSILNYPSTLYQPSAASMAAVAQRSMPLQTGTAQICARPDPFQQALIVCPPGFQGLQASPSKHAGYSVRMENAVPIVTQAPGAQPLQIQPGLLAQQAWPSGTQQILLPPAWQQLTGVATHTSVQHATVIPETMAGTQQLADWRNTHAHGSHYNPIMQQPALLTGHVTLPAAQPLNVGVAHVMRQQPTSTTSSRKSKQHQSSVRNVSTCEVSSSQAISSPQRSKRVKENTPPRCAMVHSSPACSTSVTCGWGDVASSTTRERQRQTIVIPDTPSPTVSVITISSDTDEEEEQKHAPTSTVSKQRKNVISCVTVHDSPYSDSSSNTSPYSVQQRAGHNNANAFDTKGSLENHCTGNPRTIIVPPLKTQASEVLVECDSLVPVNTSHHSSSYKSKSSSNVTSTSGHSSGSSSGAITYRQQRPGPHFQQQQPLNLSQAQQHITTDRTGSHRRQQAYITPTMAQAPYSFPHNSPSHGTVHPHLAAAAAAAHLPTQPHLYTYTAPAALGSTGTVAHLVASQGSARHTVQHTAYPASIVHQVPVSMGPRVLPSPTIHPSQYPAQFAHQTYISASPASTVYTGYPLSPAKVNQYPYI
Sequence of UniProt Q9UQM7 (whole entry, looked up): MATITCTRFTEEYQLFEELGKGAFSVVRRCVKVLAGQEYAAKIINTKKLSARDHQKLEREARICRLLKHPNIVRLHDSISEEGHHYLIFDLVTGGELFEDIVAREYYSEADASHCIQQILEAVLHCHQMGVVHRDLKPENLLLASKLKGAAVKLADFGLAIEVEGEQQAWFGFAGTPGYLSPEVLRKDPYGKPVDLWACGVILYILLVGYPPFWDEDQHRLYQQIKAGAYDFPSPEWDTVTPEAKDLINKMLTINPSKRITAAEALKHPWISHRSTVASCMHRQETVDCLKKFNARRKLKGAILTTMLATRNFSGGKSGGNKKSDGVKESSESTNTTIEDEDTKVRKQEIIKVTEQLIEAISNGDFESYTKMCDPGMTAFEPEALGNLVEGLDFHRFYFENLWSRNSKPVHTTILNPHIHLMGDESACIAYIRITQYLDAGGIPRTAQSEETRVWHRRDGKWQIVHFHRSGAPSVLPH
Sequence of UniProt Q8TDX7 (whole entry, looked up): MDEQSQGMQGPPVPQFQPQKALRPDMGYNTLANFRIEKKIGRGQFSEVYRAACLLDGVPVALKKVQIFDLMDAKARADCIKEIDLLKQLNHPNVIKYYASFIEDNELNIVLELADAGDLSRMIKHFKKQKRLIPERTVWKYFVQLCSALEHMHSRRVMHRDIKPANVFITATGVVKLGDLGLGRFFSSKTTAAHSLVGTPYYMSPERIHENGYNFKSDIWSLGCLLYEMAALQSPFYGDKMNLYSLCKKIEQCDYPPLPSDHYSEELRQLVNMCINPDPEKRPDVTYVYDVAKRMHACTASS
Sequence of UniProt P21709 (whole entry, looked up): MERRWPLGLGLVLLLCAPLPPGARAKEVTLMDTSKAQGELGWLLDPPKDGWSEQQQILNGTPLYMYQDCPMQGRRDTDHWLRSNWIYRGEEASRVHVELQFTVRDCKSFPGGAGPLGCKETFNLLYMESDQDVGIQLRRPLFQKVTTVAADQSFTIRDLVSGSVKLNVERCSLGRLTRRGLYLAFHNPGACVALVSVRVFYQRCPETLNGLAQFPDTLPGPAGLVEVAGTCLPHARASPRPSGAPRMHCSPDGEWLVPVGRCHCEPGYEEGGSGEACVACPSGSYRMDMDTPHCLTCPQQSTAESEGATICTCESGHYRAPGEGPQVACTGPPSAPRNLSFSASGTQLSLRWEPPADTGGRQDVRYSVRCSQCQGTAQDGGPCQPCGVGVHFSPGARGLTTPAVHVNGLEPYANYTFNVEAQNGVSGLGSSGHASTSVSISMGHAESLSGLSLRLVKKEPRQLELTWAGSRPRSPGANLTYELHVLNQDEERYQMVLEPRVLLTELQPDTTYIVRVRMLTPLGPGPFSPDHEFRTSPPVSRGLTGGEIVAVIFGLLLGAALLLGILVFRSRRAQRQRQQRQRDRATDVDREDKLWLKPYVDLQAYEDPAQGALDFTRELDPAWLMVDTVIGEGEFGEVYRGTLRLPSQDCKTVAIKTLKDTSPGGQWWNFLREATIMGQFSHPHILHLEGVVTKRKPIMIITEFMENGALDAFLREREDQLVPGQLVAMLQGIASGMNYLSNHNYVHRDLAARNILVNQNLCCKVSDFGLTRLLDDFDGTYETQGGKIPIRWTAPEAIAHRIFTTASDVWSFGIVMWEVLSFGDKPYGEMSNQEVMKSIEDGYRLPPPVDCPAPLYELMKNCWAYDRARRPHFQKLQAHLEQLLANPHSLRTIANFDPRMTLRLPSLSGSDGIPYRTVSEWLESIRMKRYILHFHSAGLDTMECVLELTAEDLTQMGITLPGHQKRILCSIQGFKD

Series 1
Compound: Cn1cncc1[C@](O)(COc1ccc(C#N)cc1-c1ccc(OC(F)(F)F)cc1)c1ccc(C#N)cc1
Effect on: binding
Method: competition with immobilised ligand
| target | pKd |
| --- | --- |
| HIPK2 (Homo sapiens, UniProt Q9H2X6) | < 5.00 |
| EPHA1 (Homo sapiens, UniProt P21709) | < 5.00 |
| NEK7 (Homo sapiens, UniProt Q8TDX7) | < 5.00 |

Series 2
Organism: Plasmodium berghei
Action: inhibitor
Cells: Huh-7
Strain: liver stage
Tested at: 10 µM
Time: 24 h
Reference: untreated control
| Structure (SMILES) | infection rate |
| --- | --- |
| CC(Cc1ccc(O)cc1)NCC(O)c1cc(O)cc(O)c1 (stereo not drawn) | 83% |
| CCOC(=O)c1cncn1[C@H](C)c1ccccc1 | 108% |
| CCC(N)C(O)c1ccc(O)c(O)c1 (stereo not drawn) | 83.1% |
| COc1ccc2c(c1OC)C(=O)O[C@@H]2[C@H]1c2cc3c(cc2CCN1C)OCO3 | 120% |

Mixed results
| Compound | tested on | test | system | setting | inhibition |
| --- | --- | --- | --- | --- | --- |
| Cc1ccc(NC=C2C(=O)NC(=O)N(c3ccccc3)C2=O)cc1Cl | – | AlphaScreen signal, AlphaScreen counter screen | His6 peptide without bromodomain | 50 µM, assay interference check | 14.2% |
| O=C1CCC[C@@H]2[C@H]3CCCN4CCC[C@H](CN12)[C@@H]34 | CAMK2A (Homo sapiens, UniProt Q9UQM7) | enzyme activity, inhibitor | – | 10 µM | -11% |

Excerpt of the above (series 2):
| Structure (SMILES) | infection rate |
| --- | --- |
| CC(Cc1ccc(O)cc1)NCC(O)c1cc(O)cc(O)c1 (stereo not drawn) | 83% |
| CCOC(=O)c1cncn1[C@H](C)c1ccccc1 | 108% |
